Experimental data from different studies.
Protocols differ between the studies behind these lines. Numbers after ± are the reported error.
CHRM1: Muscarinic acetylcholine receptor M1 (CHRM1, Homo sapiens, UniProt P11229)
Sequence of UniProt P11229 (whole entry, looked up): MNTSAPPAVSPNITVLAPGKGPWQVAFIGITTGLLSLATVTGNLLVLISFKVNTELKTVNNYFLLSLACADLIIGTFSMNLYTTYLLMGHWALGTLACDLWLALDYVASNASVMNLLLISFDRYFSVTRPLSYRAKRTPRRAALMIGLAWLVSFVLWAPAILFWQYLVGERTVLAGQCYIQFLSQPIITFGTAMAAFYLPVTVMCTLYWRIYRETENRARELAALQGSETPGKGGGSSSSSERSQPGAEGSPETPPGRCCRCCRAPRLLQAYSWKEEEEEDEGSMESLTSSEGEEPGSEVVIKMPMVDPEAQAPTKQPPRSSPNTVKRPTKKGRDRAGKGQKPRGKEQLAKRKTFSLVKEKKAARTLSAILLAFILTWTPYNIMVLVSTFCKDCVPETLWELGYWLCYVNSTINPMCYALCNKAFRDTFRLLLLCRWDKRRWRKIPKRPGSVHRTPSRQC
Sequence of UniProt P12369 (whole entry, unmodified, looked up): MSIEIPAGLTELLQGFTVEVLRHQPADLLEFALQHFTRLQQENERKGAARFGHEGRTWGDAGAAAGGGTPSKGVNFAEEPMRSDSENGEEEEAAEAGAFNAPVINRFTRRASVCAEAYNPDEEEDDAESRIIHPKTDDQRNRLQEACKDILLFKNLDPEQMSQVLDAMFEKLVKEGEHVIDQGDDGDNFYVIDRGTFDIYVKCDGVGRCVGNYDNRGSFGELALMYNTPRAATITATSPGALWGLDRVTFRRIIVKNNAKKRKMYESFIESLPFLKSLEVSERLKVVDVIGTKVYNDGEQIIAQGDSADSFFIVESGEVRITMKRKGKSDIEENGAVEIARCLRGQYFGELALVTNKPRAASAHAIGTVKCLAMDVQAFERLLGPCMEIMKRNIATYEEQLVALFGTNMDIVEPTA
Sequence of UniProt O58586 (whole entry, looked up): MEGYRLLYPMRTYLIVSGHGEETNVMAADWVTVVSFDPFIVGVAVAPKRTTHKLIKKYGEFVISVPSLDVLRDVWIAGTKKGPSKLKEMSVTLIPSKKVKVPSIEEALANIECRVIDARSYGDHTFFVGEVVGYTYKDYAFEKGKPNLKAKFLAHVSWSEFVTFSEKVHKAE
Sequence of UniProt Q9Y5Y9 (whole entry, looked up): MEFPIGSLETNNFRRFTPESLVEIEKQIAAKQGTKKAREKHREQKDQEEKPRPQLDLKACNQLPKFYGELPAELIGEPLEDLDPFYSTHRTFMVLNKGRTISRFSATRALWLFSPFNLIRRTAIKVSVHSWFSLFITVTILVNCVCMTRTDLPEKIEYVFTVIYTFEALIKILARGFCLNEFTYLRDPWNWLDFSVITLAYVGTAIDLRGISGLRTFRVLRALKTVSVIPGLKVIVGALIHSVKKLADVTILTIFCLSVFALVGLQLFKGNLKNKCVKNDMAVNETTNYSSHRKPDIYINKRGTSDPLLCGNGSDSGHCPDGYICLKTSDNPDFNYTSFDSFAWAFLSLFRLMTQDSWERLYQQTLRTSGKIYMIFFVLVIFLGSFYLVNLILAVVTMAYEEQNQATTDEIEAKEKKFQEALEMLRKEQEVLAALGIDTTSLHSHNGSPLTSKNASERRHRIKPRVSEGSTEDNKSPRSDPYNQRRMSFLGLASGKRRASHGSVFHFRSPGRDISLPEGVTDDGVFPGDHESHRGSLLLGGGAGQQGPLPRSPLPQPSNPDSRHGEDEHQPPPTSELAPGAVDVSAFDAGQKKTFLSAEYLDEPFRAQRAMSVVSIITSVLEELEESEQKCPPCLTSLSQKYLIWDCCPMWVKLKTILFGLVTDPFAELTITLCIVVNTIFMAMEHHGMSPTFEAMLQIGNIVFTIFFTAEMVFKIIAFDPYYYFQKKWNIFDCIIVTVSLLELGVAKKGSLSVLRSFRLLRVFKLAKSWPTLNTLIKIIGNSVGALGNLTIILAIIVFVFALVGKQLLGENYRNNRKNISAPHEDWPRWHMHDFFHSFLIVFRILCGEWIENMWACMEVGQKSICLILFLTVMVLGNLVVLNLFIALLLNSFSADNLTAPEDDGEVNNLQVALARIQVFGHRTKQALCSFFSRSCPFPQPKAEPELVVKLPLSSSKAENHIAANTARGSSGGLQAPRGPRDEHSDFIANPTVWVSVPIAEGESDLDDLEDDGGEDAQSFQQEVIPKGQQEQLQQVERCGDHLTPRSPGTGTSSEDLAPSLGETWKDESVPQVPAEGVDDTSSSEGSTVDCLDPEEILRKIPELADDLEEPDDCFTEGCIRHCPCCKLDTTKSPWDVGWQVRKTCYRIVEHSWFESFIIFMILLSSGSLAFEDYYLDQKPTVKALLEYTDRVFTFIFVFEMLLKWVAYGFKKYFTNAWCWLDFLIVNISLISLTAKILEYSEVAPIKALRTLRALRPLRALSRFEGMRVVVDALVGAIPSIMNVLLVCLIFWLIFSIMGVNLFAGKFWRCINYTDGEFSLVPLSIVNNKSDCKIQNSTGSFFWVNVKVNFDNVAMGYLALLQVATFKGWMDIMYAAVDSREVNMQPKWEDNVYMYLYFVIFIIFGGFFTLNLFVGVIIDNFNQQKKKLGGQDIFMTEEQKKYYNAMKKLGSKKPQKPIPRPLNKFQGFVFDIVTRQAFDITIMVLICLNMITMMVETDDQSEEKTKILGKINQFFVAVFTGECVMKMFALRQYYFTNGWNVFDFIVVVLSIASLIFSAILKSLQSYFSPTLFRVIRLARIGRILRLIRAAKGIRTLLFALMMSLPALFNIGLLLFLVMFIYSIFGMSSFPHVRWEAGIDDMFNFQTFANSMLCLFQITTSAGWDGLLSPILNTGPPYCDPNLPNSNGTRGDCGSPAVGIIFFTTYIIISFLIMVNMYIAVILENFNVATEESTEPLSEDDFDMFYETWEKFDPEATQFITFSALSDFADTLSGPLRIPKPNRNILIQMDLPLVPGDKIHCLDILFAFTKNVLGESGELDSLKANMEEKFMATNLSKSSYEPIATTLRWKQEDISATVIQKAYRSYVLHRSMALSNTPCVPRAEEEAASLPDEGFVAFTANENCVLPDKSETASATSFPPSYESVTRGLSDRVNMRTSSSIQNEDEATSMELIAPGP
Sequence of UniProt P21980 (whole entry, looked up): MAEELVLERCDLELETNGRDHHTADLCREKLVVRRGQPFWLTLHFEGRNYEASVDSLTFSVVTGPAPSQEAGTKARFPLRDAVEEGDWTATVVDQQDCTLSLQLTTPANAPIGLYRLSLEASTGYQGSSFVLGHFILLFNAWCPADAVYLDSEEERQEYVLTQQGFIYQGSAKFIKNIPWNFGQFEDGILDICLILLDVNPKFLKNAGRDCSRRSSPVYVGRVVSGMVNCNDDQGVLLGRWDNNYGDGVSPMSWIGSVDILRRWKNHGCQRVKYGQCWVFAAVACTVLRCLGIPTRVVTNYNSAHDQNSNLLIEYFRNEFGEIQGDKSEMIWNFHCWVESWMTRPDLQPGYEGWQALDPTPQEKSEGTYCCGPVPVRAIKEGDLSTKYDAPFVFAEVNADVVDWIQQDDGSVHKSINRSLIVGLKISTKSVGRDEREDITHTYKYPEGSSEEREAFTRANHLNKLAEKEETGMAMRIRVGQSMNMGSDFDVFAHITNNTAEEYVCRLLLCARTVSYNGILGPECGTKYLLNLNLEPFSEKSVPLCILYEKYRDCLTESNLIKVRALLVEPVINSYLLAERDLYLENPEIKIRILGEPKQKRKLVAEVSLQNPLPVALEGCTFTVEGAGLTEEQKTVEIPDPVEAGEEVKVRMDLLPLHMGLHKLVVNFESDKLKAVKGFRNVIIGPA
Sequence of UniProt Q9D3A9 (whole entry, looked up): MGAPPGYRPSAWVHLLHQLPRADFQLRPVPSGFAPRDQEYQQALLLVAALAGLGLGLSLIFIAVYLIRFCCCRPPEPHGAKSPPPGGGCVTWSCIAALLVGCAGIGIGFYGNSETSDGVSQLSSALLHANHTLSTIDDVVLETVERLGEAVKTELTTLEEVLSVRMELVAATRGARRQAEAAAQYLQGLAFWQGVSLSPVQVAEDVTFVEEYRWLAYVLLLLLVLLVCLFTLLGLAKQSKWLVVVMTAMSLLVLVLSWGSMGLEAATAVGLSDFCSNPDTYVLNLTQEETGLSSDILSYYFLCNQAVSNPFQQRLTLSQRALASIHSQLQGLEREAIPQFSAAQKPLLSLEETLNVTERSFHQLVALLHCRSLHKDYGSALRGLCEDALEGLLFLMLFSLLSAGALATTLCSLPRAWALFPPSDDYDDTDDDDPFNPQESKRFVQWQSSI
Sequence of UniProt P06401 (whole entry, looked up): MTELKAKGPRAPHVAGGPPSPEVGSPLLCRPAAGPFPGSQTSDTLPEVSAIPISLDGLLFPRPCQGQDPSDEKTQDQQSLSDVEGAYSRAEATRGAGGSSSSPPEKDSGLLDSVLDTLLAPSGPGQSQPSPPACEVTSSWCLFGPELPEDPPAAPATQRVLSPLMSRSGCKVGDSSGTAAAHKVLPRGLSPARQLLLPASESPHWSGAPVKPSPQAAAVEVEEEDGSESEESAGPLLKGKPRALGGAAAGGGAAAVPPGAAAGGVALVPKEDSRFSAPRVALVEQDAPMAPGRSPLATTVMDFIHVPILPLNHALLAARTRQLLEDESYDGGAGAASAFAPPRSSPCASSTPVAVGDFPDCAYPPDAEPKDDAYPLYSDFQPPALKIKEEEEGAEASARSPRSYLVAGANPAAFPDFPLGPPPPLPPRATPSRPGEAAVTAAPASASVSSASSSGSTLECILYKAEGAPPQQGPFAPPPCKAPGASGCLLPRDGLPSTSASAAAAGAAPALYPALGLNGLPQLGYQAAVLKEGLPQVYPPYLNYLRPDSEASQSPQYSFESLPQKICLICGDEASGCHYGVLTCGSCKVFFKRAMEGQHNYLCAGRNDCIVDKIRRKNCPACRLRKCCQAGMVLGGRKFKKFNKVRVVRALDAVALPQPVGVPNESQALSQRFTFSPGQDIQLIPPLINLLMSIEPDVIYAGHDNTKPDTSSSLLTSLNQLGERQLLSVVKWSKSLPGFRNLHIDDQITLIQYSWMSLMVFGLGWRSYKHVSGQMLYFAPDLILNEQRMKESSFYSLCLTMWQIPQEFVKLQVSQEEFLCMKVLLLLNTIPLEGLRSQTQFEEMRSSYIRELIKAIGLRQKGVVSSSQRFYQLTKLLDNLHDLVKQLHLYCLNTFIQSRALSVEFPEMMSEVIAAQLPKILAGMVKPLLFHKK

| Structure (SMILES) | target | assay | test system | conditions | how to read | endpoint | result |
| --- | --- | --- | --- | --- | --- | --- | --- |
| COC(=O)c1ccn2c(NCCN3CCOCC3)c(-c3cccn3C)nc2c1 | CHRM1 | agonist | – | assay interference | – | aggregation concentration | > 10 µM |
| CCn1cc(-c2ccc(COc3ccccc3-c3cc(=O)n(C4CCCCC4O)cn3)cc2)cn1 (stereo not drawn) | CHRM1 | positive allosteric modulator, IP1 accumulation | CHO-M1 cells | 10 µM, 60 min, 37 °C, added: ACh | baseline: ACh alone, higher = stronger potentiation | ΔpEC50 of ACh | 2.6 ± 0.39 log units |
| COc1ccc(C)c2sc(NC(=O)CCc3ccccc3)nc12 | Muscarinic acetylcholine receptor M4 (CHRM4, Homo sapiens, UniProt P08173) | calcium mobilization, positive allosteric modulator | CHO expressing hM4 and Gqi5 | concentration not given, added: acetylcholine EC20 | – | activity | inactive |
| Cc1nc[nH]c1-c1ccnc(Nc2ccc(N3CCOCC3)cc2)c1 | Mitogen-activated protein kinase 10 (MAPK10, Homo sapiens, UniProt P53779) | thermal stability, nanoDSF | – | 50 µM | – | melting temperature | 53.8 °C |
| CCCc1nc2ccccc2n1Cc1ccc(-c2ccccc2C(=O)OC)cc1 | Peroxisome proliferator-activated receptor gamma (PPARG, Homo sapiens, UniProt P37231) | – | COS-7 | 10 µM, 39 h | – | Emax | 20.5% |
| Cc1cc(Nc2ncc(Cl)c(Nc3ccccc3S(=O)(=O)C(C)C)n2)c(OC(C)C)cc1C1CCN(CC(=O)NCCNc2cccc3c2C(=O)N(C2CCC(=O)NC2=O)C3=O)CC1 (stereo not drawn) | NPM/ALK (Nucleophosmin/ALK tyrosine kinase receptor) (NPM1/ALK, Homo sapiens, UniProt P06748+Q9UM73) | protein degradation, degrader, western blot | SU-DHL-1 | 100 nM, 2 h, after washout | – | recovery onset time | 8 h |
| CSc1nc2c([nH]1)c(=O)n(C)c(=O)n2C | Progesterone receptor (PGR, Homo sapiens, UniProt P06401) | reporter gene, antagonist, MMTV-luciferase | T47D/A1-2 | 10 µM, 24 h, added: 5 nM progesterone | baseline: maximal activity | remaining activity | 9% |
| C=CC(=O)NCCCC[C@H](NC(=O)OCc1ccccc1)C(=O)N1CCN(C(=O)c2ccccn2)CC1 | Protein-glutamine gamma-glutamyltransferase (TGM2, Homo sapiens, UniProt P21980) | – | – | pH 6.5 | – | kinact | 0.0488 ± 0.00483 s⁻¹ |
| CN(C)C(=O)CCSC(SCCC(=O)O)c1cccc(/C=C/c2ccc3ccc(Cl)cc3n2)c1 (stereo not drawn) | UDP-glucuronosyltransferase 1A1 (UGT1A1, Homo sapiens, UniProt P22309) | enzyme activity, inhibitor | – | 20 µM | – | remaining activity | 25.8% |
| O=C1C=CCCC1 | Uncharacterized protein PH0856 (Pyrococcus horikoshii, UniProt O58586) | – | – | 24 h, pH 7, 30 °C, aerobic, added: 10 mM substrate, 15 mM NAD(P)H | – | conversion | 4 to 7% |
| COC(=O)c1scc(C)c1NC(=O)C(C)N1CCN(C)CC1 (stereo not drawn) | Sodium channel protein type 10 subunit alpha (SCN10A, Homo sapiens, UniProt Q9Y5Y9) | cell membrane chromatography | – | – | higher = stronger binding | capacity factor k′ | 49 |
| NS(=O)(=O)c1ccc(COc2ccccc2-c2cc(=O)n(C3CCCCC3O)cn2)cc1 (stereo not drawn) | CHRM1 | positive allosteric modulator, IP1 accumulation | CHO-M1 cells | 1 µM, 60 min, 37 °C, added: ACh | baseline: ACh alone, higher = stronger potentiation | ΔpEC50 of ACh | 0.76 ± 0.1 log units |
| Nc1ncnc2c1nc(Br)n2[C@@H]1O[C@@H]2COP(=O)(O)O[C@H]2[C@H]1O | cAMP-dependent protein kinase type II-beta regulatory subunit, holoenzyme with catalytic subunit (Prkar2b, Rattus norvegicus, UniProt P12369, S112A) | PKA holoenzyme activation, activator, fluorescence anisotropy | – | – | baseline: RIIβ over RIα, higher = RIIβ-selective | selectivity ratio | 0.4 |
| N[C@@H](CCC(=O)O)C(=O)O | Protein tweety homolog 1 (Ttyh1, Mus musculus, UniProt Q9D3A9) | permeant anion, whole-cell patch clamp | HEK-293T co-expressing AQP4 | 70 mM, hypo-osmotic solution | baseline: compound over chloride | permeability ratio | ~0.26 |
| CN(C)S(=O)(=O)c1ccc(COc2ccccc2-c2cc(=O)n(C3CCCCC3O)cn2)cc1 (stereo not drawn) | CHRM1 | allosteric agonist, IP1 accumulation | CHO-M1 cells | 10 µM, unit not given | baseline: maximum ACh response | change in baseline activity | 20.9 ± 2.2 |

A few entries again:
| Structure (SMILES) | target | assay | test system | conditions | how to read | endpoint | result |
| --- | --- | --- | --- | --- | --- | --- | --- |
| CN(C)C(=O)CCSC(SCCC(=O)O)c1cccc(/C=C/c2ccc3ccc(Cl)cc3n2)c1 (stereo not drawn) | UDP-glucuronosyltransferase 1A1 (UGT1A1, Homo sapiens, UniProt P22309) | enzyme activity, inhibitor | – | 20 µM | – | remaining activity | 25.8% |
| Cc1cc(Nc2ncc(Cl)c(Nc3ccccc3S(=O)(=O)C(C)C)n2)c(OC(C)C)cc1C1CCN(CC(=O)NCCNc2cccc3c2C(=O)N(C2CCC(=O)NC2=O)C3=O)CC1 (stereo not drawn) | NPM/ALK (Nucleophosmin/ALK tyrosine kinase receptor) (NPM1/ALK, Homo sapiens, UniProt P06748+Q9UM73) | protein degradation, degrader, western blot | SU-DHL-1 | 100 nM, 2 h, after washout | – | recovery onset time | 8 h |
